Measured values pooled from the literature.
Parts stem from different laboratories: compare values within a part only. Positions count from the first letter of the parent shown.

Study 1
Target: CCNE1, cyclin fold, Cln2 fusion (human)
Technique: yeast growth competition, sequencing
Medium: yeast
Notes: weak parent motif
Reference: not given
Reading: higher = stronger binding
Starting sequence: SLBP docking peptide (human); ARYKRKLLINDFG
| Substitution | normalised enrichment score |
| --- | --- |
| ARYKRKLLIPDFG [N10P] | 0.403 |
| QRYKRKLLINDFG [A1Q] | -0.652 |
| ARYKRKLLINAFG [D11A] | 1.13 |
| ARYKRKLLITDFG [N10T] | 1.04 |
| ARYKRKLLINYFG [D11Y] | 1.68 |
| ARYKRKLLINDFN [G13N] | 0.718 |
| ARYKRKLLIHDFG [N10H] | 0.858 |
| ARYKRKQLINDFG [L7Q] | 0.146 |
| ARYKRKLLIIDFG [N10I] | 1.33 |
| ARYKRKLLINPFG [D11P] | 1.84 |
| ARGKRKLLINDFG [Y3G] | 0.272 |
| ARYKRKLLVNDFG [I9V] | 0.588 |
| ARYYRKLLINDFG [K4Y] | 0.155 |
| ARYKRKLLINDTG [F12T] | -0.405 |

Study 2
Target: Interferon regulatory factor 5, full length, phosphomimetic (IRF5, Homo sapiens, UniProt Q13568-2, residues 1-514, S451D/S453D/S456D/S462D)
Technique: protein-binding microarray
Molecule type: double-stranded DNA, one strand shown
Medium: in vitro
Concentration: 940 nM top
Notes: 60-bp whole probe
Added: salmon DNA 0.4 mg/ml
Reference: random background probes
Reading: higher = stronger binding
Shared flanks, not repeated: GCCTAGCAC … GTCTTGATTCGCTTGACGCTGCTG
| Oligonucleotide | fitted relative affinity [z-score] |
| --- | --- |
| GTCGATATCAGTATCGAGACGTGCTAG | 2.99 |
| TCAGATATCAGTTTCGATTAGTGCTAG | 8.24 |
| TCATGTTTGGTTCTGATACTGTGCTAG | 0.801 |
| GACGAACTGCGGTTTCGAGACGTGCTA | 1.67 |
| TTAGATATCGGGTTTGGATTAGTGCTA | 0.166 |
| AATTTTTACTTTCTGAATGCGTGCTAG | 1.94 |
| CTAGATTTCAGACTGGATTAGTGCTAG | -0.359 |
| CTCTAAGACACAAGATCAGAGTGCTAG | -0.0449 |
| TTAGATTTCAGTCTCGCTTAGTGCTAG | 2.25 |
| GACGGTTTCGACTTTTGGGACGTGCTA | 6.69 |
| TTAGGTTTCGACTATCTGTTAGTGCTA | 9 |
| TTAGATTGCAGTATCGATTAGTGCTAG | 3.97 |

Study 3
Target: Centromere-binding protein 1, full length, N-terminal tag (CBF1, Saccharomyces cerevisiae, UniProt P17106, residues 1-351)
Chain of UniProt P17106 (whole entry, looked up): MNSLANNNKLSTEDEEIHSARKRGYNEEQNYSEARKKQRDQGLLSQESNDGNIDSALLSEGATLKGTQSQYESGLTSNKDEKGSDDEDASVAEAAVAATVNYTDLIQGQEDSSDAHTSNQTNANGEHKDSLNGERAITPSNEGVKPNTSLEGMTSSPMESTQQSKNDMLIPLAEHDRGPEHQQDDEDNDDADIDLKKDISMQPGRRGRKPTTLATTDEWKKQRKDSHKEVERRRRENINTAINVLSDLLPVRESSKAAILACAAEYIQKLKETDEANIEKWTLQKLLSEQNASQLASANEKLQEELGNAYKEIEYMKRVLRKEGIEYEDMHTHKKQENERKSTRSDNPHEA
Technique: protein-binding microarray
Molecule type: double-stranded DNA, one strand shown
Medium: in vitro
Concentration: 0.8 µM
Notes: whole 60-bp probe, no competitor
Reading: higher = stronger binding
Shared flanks, not repeated: … GTCTTGATTCGCTTGACGCTGCTG
| Oligonucleotide | fluorescence intensity [a.u.] |
| --- | --- |
| CTAACTAATCTCCATCACGTACCGTACCGTCTTTTC | 598 |
| CTAAATATAGTGTGTCACGCATACAATAATTGATTC | 1310 |
| CTACAGTTTGAAAGAAACGTGAAAATTATTTTTTTC | 623 |
| GAATAATTCTATCATCACGCTTATAGTGTTTACTAG | 635 |
| GAAGATTCGTTAAAATACGTGATGGTGTTATTTTAG | 583 |
| GAAGCTAATTAGGTGATCATGAAAAAATGAAAATAG | 613 |
| CTATTGTTTATTTACAAGCTGATGTAGAATTACTTC | 584 |
| CTATTTGTCTACTTGCGTGTGCTTTCAGTTCTTTTC | 535 |
| TGTACGAAGCTATATCAGATGTGTATAGTAGTTAGG | 549 |
| CTAATACCAAGAACTCACGAAAAGACTAGGAATTTC | 487 |
| GAAGGGTGTGGGTGTGGTGTGGGTGTGGTGGGTTAG | 556 |
| CTAGGACGCTTCGGCGAGCTGATGTCTGACTTCTTC | 478 |
| CTATACGTAATTGGGCTCGTGGGACCAAAAGGCTTC | 536 |
| CTATAGTACCGTCCGCACATGATGTCATTTCCCTTC | 979 |
| CTATGTTACATCTGTCACGGCATTCCAGCTGTATTC | 616 |
| CCTAACTACTATAATTTCATGACATAGCTTCGTACA | 548 |
| CCTAACTACTATATAGAGGTGACATAGCTTCGTACA | 512 |
| CTAATTTCTATTTACCGGGTGATGGCGGCGCGCTTC | 511 |
| GAAGAACATCATCGTCACCATATCACTGAGAAATAG | 596 |
| CTAATTGGCATTACTCAGCTGATACTTATTAATTTC | 733 |
| CTAGTACCATGCAGCCATCACTACATACTAGCATTC | 521 |
| GAATTTTGCCGAAAGCACATGCTTGTCTTTGTATAG | 700 |

Further values, each from its own experiment
| Substance | target | assay | system | setting | how to read | quantity | value |
| --- | --- | --- | --- | --- | --- | --- | --- |
| PhoQ, residues 284 288 289 292 302 303 NLGVHL | PhoP, residues 12 14 15 18 19 TQAML (Escherichia coli, UniProt P23836) | Sort-seq, item: YFP reporter | E. coli | PhoQ-PhoP variant library, added: 10 µM Mg2+ | reference: high Mg2+ state, higher = stronger signaling | fold induction | 0.606 |

Repeated from above (study 3):
| Oligonucleotide | fluorescence intensity [a.u.] |
| --- | --- |
| CTACAGTTTGAAAGAAACGTGAAAATTATTTTTTTC | 623 |
| GAATAATTCTATCATCACGCTTATAGTGTTTACTAG | 635 |
| GAAGATTCGTTAAAATACGTGATGGTGTTATTTTAG | 583 |
| GAAGCTAATTAGGTGATCATGAAAAAATGAAAATAG | 613 |
| CTATTGTTTATTTACAAGCTGATGTAGAATTACTTC | 584 |
| CTATTTGTCTACTTGCGTGTGCTTTCAGTTCTTTTC | 535 |
| TGTACGAAGCTATATCAGATGTGTATAGTAGTTAGG | 549 |
| CTAATACCAAGAACTCACGAAAAGACTAGGAATTTC | 487 |
